Assay results of several laboratories.
Each line is one published result; not all experiments were run side by side. ± marks the error that the study gave.

SMILES | cell line | assay | system | setting | scale | endpoint | value
Clc1ccc(NN=C(c2ccccc2)c2ccccn2)nc1 | NCI-H358 | – | cell lysate | 0.1 to 2 µM | baseline: untreated | H3K9me3 demethylase activity | decreased
Cc1cc(Nc2ccc(NC(=O)c3ccc(NC(=O)c4ccncc4)cc3)cc2)nc(N)n1 | KG-1 with methylated CMV-luciferase | luciferase reporter gene | – | 3.2 µM, 24 h | baseline: untreated | reporter reactivation | 1.2 ± 0.1 fold
Brc1ccc(Nc2nc(NN=Cc3c[nH]c4ccccc34)nc(N3CCOCC3)n2)cc1 | SK-BR-3 | Western blot, refers to: LC3-II | – | concentration not given, 12 h | – | protein level | increased
COc1cc(CNC(=O)C[C@H](C)CCC=C(C)C)ccc1OCc1cn(-c2cccc(C(F)(F)F)c2)nn1 | Hs-578T breast cancer cells | SRB | – | 10 µM, 48 h | – | growth percent | 94.3%
COc1cc(C=O)ccc1OC(=O)COC(=O)[C@]1(C)C2CC[C@]3(C)C(C(=O)C=C4C5[C@@H](C)[C@H](C)CC[C@]5(C)CC[C@]43C)[C@@]2(C)CC[C@H]1OC(C)=O (some centres unmarked) | RAW264.7 | NO release, inhibitor, Griess | – | 10 µM, 24 h, LPS-stimulated | – | inhibition | 66.4%
COc1cc(CNC(=O)C[C@H](C)CCC=C(C)C)ccc1OCc1cn(-c2cccc(Cl)c2)nn1 | EKVX | SRB | – | 10 µM, 48 h | – | growth percent | 51.2%
[Cl][Pd-2]1([Cl])[N+](=Cc2ccc[nH]2)Cc2cccc[n+]21 | Caco-2 | MTT | – | 100 µg/mL, 24 h | – | viability reduction | > 80%
CC(=O)N[C@H](C(=O)N[C@H](C(=O)N[C@@H](CCCNC(=N)N)C(=O)N1Cc2ccccc2C[C@H]1C(=O)N[C@@H](Cc1ccccc1)C(N)=O)C1CCCCC1)C(C)C | MBP-specific BC-3 T cells | Bio-Plex multiplex, refers to: IL-8 | – | 200 µg/mL, 24 h, with: MBP87-99 antigen | – | cytokine level | 14800 ± 7190 pg/mL
Cc1cccc(O[C@H]2CCC[C@@H](C(C)CNCc3ccncc3)C2)c1 (relative stereo) | MC65 Tet-On cells | – | – | 1 µM, 24 h | – | increase in NADH | ≤ 25%
CN1CCc2cc(Nc3ncc(C(F)(F)F)c(NCc4cc[nH]n4)n3)ccc2C1 | GL261 | annexin V/PI | – | concentration not given | – | apoptotic cells | 59.4%
CN1CCN(C(=O)N(CCCCCCC(=O)NO)c2ccc(-c3ccc4cnn(C)c4c3)cc2)CC1 | MM1.S and RPMI-8226 | immunoblot, refers to: β-catenin and c-Myc | – | concentration not given, 24 h | – | protein level | decreased
O=C(/C=C/c1ccccc1)Oc1ccc2c(c1)O/C(=C\C=C\c1ccccc1)C2=O | HeLa GFP-LC3 | Western blot | – | concentration not given, with: EBSS starvation | – | LC3-II level | decreased
COc1cc(CNC(=O)C[C@H](C)CCC=C(C)C)ccc1OCc1cn(-c2ccccc2Cl)nn1 | RXF 393 | SRB | – | 10 µM, 48 h | – | growth percent | 72.6%
O=C(Nc1cc(Cl)ccc1O)c1nn2c(C(F)(F)F)cc(-c3cc(Br)cs3)nc2c1Br | healthy donor PBMC | ELISA | – | 2.5 µM, 48 h | – | IFN-gamma level | increased
Cc1ccc(CN2C(=O)/C(=N\c3ccc(Cl)cc3Br)c3ccccc32)cc1 | B16 | – | – | 0.8 µM, 48 h | – | S-phase cells | 57.6%
Cc1ccc(Nc2ncc3c(n2)N(C2CC2)C(=O)N(c2cc(NC(=O)c4cccc(C(F)(F)F)c4)ccc2C)C3)cn1 | Huh-7 | cell growth or viability, ATP luminescence | – | 72 h | – | GI50 | 0.158 µM
COc1cc2c(OC3OCC(OC)C(OC)C3OC(=O)c3ccc(Br)cc3)c3c(c(-c4ccc5c(c4)OCO5)c2cc1OC)C(=O)OC3 (centres unmarked) | CAL-27 | RT-qPCR, refers to: Twist | – | concentration not given, 36 h | – | mRNA level | decreased
CN1CCN(c2ccc3nc(-c4cccc(N5CCc6ccccc6C5)n4)[nH]c3c2)CC1 | HT-22 | protection from ferroptosis, CCK-8 viability | – | 24 h, with: 1 µM erastin | – | EC50 | 0.78 µM
CC(C)C(=O)Cc1c(OCC(O)C(C)(C)O)ccc2ccc(=O)oc12 (centres unmarked) | COLO 320 (ABCB1-overexpressing, multidrug-resistant) | cell growth | – | 200 µM starting, CI at ED50, with: doxorubicin, ratio 185.6:1 | – | combination index | 0.78

SMILES | cell line | assay | system | setting | scale | endpoint | value
C[C@H](NC(=O)CNC(=O)[C@H](CCC(=O)O)NC(=O)[C@H](CCC(=O)O)NC(=O)[C@H](CC(=O)O)NC(=O)[C@@H]1CCCN1C(=O)[C@H](Cc1ccccc1)NC(=O)[C@H](CS)NC(=O)[C@H](Cc1ccc(O)cc1)NC(=O)CCCNC(=O)CNC(=O)CNC(=O)[C@@H](C)NC(=O)CN)C(=O)N[C@@H](CS)C(=O)N[C@@H](Cc1ccc(O)cc1)C(N)=O [technetium-99m labelled] | SK-BR-3 | – | – | 24 h, 37 °C | – | internalization | 18.4 ± 0.27%
C=CC(=O)N1C[C@H](C)N(c2nc(OC[C@@]34CCCN3C[C@H](F)C4)nc3c(F)c(-c4ccc(F)c5sc(N)c(C#N)c45)c(C(F)(F)F)cc23)C[C@H]1C | MEF expressing wild-type KRAS4b | pERK | – | – | baseline: KRAS G12C over wild-type KRAS4b | potency ratio | 5 to 10
O=c1[nH]c(N2CCC3(CC2)CN(CCO)c2cc(F)cc(F)c23)nc2c1CCCC2 | COLO 320DM | immunofluorescence, refers to: non-phosphorylated β-catenin | – | 1 µM, 16 h, DMSO 100% | – | active β-catenin level | 0.63%
CCOC(=O)c1csc2nc(-c3cccc(NC(=O)c4cc5cc(NC(=O)C(C)Cl)ccc5n4Cc4ccc(C(F)(F)F)cc4)c3)cn12 (centres unmarked) | RAW264.7 | – | – | 10 µM, with: LPS | baseline: control | intracellular GSH level | decreased
COc1cc(CNC(=O)C[C@H](C)CCC=C(C)C)ccc1OCc1cn(-c2ccc(C#N)cc2)nn1 | T47D breast cancer cells | SRB | – | 10 µM, 48 h | – | growth percent | 36%
CCOC(=O)c1nc2cc(Cl)c(Cl)cc2nc1N1CCN(C(=O)Nc2ccc(N3CCNCC3)cc2)CC1 | RAW264.7 | – | – | 5 µM, with: LPS | – | lactate production | decreased
COc1ccc(S(=O)(=O)N2CCc3ccccc3C2)cc1N1CCN(C(=O)c2ccc(F)cc2C(F)(F)F)CC1 | mouse midbrain dopamine neurons | – | – | 7.5 nM, 5 days, normalized to total cells | – | TH-positive neuron count | 387 ± 15
Cc1c2ccnc(C(=O)N[C@H](C)CN(C)C)c2cc2c3cc(OCCCN4CCN(C)CC4)ccc3n(C)c12 | C9orf72 ALS patient-derived iPSCs | western blot | – | 5, 50, 500 nM | – | C9ORF72 protein level | no effect
COc1cccc(/C=N/NC(=O)COc2ccc(/C=N/NC(=O)C(C)c3ccc(CC(C)C)cc3)cc2)c1O (centres unmarked) | U87 MG | MTT | – | 100 µM, 48 h | – | viability | 27.6%
COc1cc(CNC(=O)C[C@H](C)CCC=C(C)C)ccc1OCc1cn(-c2ccccc2)nn1 | RXF 393 | SRB | – | 10 µM, 48 h | – | growth percent | 90.8%
CC(C)Cc1ccc(C(C)C(=O)N/N=C/c2ccc(OCC(=O)N/N=C/c3ccc([N+](=O)[O-])cc3)cc2)cc1 (centres unmarked) | U87 MG | MTT | – | 150 µM, 48 h | – | viability | 61.8%
COc1cc(CNC(=O)C[C@H](C)CCC=C(C)C)ccc1OCc1cn(-c2ccc(F)cc2)nn1 | EKVX | SRB | – | 10 µM, 48 h | – | growth percent | 65.2%
O=Cc1c(O)ccc2ccccc12 | HUVEC | RNA sequencing, refers to: DHCR24 | – | 75 µM, 24 h | baseline: DMSO | log2 fold change | -3.06
COc1cc(CNC(=O)C[C@H](C)CCC=C(C)C)ccc1OCc1cn(-c2ccc([N+](=O)[O-])cc2)nn1 | EKVX | SRB | – | 10 µM, 48 h | – | growth percent | 75.2%
CC(C)Cc1ccc(C(C)C(=O)NN=Cc2ccc(OCC(=O)NN=Cc3cccc([N+](=O)[O-])c3)cc2)cc1 (centres unmarked) | U87 MG | MTT | – | 40 µM, 48 h | – | viability | 75.8%
CC(=O)OC[C@H]1O[C@@H](Sc2sc(C(=O)c3ccc(C)cc3)c(N)c2-c2nc3ccccc3s2)[C@H](OC(C)=O)[C@@H](OC(C)=O)[C@H]1OC(C)=O | OVCAR-5 | SRB | – | 10 µM, 48 h | baseline: untreated | growth | 99.7%
Ic1cccc2cnccc12 | axotomized mouse DRG neurons | NfL release, ELISA, refers to: neurofilament light chain | culture supernatant | – | – | EC50 | 1.9 µM
CC(C)=CCc1c(OCC2OC2(C)C)ccc2ccc(=O)oc12 (centres unmarked) | COLO 320 (ABCB1-overexpressing, multidrug-resistant) | cell growth | – | 150 µM starting, CI at ED50, with: doxorubicin, ratio 69.68:1 | – | combination index | 0.83
COc1cc(CNC(=O)C[C@H](C)CCC=C(C)C)ccc1OCc1cn(-c2ccccc2[N+](=O)[O-])nn1 | DU-145 | SRB | – | 10 µM, 48 h | – | growth percent | 77.9%
